{"data": "Measured values pooled from the literature", "note": "Every numbered part comes from another study and shows a few of its results, in no order. Changes are numbered by the printed parent chain.", "UniProt O15294, sequence (whole entry, looked up)": "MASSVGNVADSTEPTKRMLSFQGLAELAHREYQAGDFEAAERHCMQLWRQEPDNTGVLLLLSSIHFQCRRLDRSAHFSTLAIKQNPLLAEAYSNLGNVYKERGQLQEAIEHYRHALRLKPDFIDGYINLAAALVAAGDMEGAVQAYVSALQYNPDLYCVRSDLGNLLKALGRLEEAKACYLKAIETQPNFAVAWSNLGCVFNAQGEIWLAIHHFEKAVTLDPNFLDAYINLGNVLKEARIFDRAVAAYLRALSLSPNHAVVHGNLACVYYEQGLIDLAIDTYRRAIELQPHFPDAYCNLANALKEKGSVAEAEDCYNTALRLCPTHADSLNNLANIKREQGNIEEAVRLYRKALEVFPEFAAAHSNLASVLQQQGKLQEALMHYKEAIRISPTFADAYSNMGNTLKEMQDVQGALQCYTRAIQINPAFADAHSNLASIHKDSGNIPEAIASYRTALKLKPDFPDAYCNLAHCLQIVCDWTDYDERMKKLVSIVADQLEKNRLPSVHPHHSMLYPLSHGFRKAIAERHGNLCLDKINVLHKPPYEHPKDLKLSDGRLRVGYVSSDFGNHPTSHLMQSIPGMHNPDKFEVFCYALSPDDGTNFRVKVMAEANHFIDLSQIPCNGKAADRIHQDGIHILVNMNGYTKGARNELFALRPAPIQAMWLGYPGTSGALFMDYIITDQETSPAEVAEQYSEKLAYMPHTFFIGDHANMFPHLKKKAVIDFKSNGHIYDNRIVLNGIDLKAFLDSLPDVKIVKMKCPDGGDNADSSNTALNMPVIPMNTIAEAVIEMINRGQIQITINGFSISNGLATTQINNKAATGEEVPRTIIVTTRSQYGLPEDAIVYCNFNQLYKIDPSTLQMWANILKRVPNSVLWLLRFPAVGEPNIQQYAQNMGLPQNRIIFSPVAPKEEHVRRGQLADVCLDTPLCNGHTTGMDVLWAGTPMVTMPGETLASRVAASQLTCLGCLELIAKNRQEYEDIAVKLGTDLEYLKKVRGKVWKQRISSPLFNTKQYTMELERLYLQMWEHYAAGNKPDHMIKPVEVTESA"}
{"data": "Study 1", "target": "PABPC1L2, full length, GST fusion (mouse, UniProt A0ABA7IW68)", "technique": "RNAcompete", "form": "RNA", "medium": "in vitro", "concentration": "20 nM", "notes": "7-mer, probes averaged, single round", "reference": "mean of 7-mers", "direction": "higher = stronger binding", "Residues (chain)": "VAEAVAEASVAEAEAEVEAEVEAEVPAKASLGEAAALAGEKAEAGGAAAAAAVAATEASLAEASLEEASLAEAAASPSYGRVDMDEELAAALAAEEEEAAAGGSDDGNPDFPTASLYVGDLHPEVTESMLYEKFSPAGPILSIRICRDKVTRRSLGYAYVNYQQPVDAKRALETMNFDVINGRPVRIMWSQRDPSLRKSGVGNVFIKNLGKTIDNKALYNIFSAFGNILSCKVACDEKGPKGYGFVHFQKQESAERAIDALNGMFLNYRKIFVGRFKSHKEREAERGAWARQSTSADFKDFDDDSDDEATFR"}
{"Oligonucleotide": "CUCGGCU", "7-mer Z-score": -0.362}
{"Oligonucleotide": "GACCGCC", "7-mer Z-score": -0.309}
{"Oligonucleotide": "UGUACUG", "7-mer Z-score": -0.3}
{"Oligonucleotide": "GAGAUGG", "7-mer Z-score": 0.177}
{"Oligonucleotide": "UUGUUUU", "7-mer Z-score": -0.365}
{"Oligonucleotide": "CAUAUUA", "7-mer Z-score": -0.237}
{"Oligonucleotide": "AUUGGGA", "7-mer Z-score": 0.372}
{"Oligonucleotide": "GCUUUGA", "7-mer Z-score": -0.253}
{"data": "Study 2", "target": "Phosphate system positive regulatory protein PHO4, full length, GST-tagged (PHO4, Saccharomyces cerevisiae, UniProt P07270, residues 1-312)", "technique": "competition protein-binding microarray", "form": "double-stranded DNA, one strand shown", "medium": "in vitro", "concentration": "2 µM", "notes": "whole 60-bp probe, lowest competitor level", "added": "Cbf1 competitor, 0.05 µM", "direction": "higher = stronger binding", "constant ends, left off below": "… GTCTTGATTCGCTTGACGCTGCTG", "UniProt P07270, sequence (whole entry, looked up)": "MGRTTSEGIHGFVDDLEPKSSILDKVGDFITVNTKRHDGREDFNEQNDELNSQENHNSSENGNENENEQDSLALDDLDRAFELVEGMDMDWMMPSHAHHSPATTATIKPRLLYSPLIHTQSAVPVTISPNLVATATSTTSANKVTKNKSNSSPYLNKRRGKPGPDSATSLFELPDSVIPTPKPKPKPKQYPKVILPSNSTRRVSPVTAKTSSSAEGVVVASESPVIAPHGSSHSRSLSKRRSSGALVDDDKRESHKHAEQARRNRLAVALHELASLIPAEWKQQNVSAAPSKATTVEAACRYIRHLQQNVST"}
{"Oligonucleotide": "AGTCTTGATTTCTTGCGCATGACGGATTAAATTCTT", "fluorescence intensity": "5360 a.u."}
{"Oligonucleotide": "GACTTGGCCTAGTTCCACATGTTTTTCATCATCCAG", "fluorescence intensity": "7610 a.u."}
{"Oligonucleotide": "TGCGCAACAACTTGTAATGTGGGTGTATGTCTAGAA", "fluorescence intensity": "5300 a.u."}
{"Oligonucleotide": "CGGGGTTAAGTTTTTCACGTGTGGTGCTTGCAGCAG", "fluorescence intensity": "12000 a.u."}
{"Oligonucleotide": "CCCCTATACATGGGGTACGTGCCAGTATTTTGAGGG", "fluorescence intensity": "9610 a.u."}
{"Oligonucleotide": "CTCTTCCTGAATTTGCACGGGGAACCAAGGCCTATC", "fluorescence intensity": "7120 a.u."}
{"Oligonucleotide": "TGCCTTTCTGAAACGAATGTGACGGATACAGATACC", "fluorescence intensity": "5060 a.u."}
{"Oligonucleotide": "TGGTTACAAGATATACGCGTGACTCGTTTTTTATTT", "fluorescence intensity": "8480 a.u."}
{"data": "Other studies, line by line", "CCNA2": "CCNA2, cyclin fold, Cln2 fusion (human)", "P1": "viral docking peptide; YKVKRRLVFGADD; partner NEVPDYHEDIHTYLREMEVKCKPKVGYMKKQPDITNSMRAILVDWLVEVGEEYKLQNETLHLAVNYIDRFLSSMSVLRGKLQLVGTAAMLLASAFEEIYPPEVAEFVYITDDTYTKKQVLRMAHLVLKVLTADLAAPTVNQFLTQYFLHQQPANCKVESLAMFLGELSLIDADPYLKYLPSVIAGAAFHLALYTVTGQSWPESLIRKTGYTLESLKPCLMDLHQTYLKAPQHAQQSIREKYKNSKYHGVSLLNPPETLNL"}
{"Molecule": "P1 L7G", "target": "CCNA2", "assay": "yeast growth competition, sequencing", "system": "yeast", "setting": "strong parent motif", "how to read": "reference: not given, higher = stronger binding", "endpoint": "normalised enrichment score", "value": 0.367}
{"Molecule": "QSMGFSYPPAYLIKY", "target": "UDP-N-acetylglucosamine--peptide N-acetylglucosaminyltransferase 110 kDa subunit (OGT, Homo sapiens, UniProt O15294)", "assay": "binding, phage display NGS", "system": "peptide", "setting": "concentration not given", "how to read": "reference: input library", "endpoint": "enrichment fold change", "value": 1.72}
{"Molecule": "P1 V8W", "target": "CCNA2", "assay": "yeast growth competition, sequencing", "system": "yeast", "setting": "strong parent motif", "how to read": "reference: not given, higher = stronger binding", "endpoint": "normalised enrichment score", "value": 6.21}
{"note": "Some of these lines once more (study 1):"}
{"Oligonucleotide": "AUUGGGA", "7-mer Z-score": 0.372}
{"Oligonucleotide": "GAGAUGG", "7-mer Z-score": 0.177}
